Results of several laboratories.
Each numbered part is a random draw from the data of one study; scales do not carry over between parts. Substitutions count along the parent as printed.

Series 1 — technique: RNA Bind-n-Seq; molecule type: RNA; matrix: in vitro; concentration: 90 pmol; notes: 4-mer, random 30-nt RNA, single round; with: 3 µM DMDA-PatA, 2 mM ADP, 2 mM phosphate; reference: input library; direction: higher = stronger binding
Target: ATP-dependent RNA helicase DDX3X, helicase core (DDX3X, Homo sapiens, UniProt O00571, residues 132-607)
Sequence of UniProt O00571 (132-607, looked up): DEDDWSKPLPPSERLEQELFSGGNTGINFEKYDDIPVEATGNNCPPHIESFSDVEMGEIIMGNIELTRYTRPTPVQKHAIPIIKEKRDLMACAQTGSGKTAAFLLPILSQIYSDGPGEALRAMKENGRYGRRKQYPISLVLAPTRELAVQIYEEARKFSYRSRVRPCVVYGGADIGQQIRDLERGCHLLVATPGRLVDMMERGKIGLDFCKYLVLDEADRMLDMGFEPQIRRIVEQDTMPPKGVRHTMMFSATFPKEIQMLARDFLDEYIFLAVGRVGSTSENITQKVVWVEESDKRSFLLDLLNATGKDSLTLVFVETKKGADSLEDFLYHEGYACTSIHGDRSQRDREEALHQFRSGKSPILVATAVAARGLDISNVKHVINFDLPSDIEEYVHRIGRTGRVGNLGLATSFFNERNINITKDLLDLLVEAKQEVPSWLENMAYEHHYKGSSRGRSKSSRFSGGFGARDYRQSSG
Strand | 4-mer enrichment [fold]
AUGU | 1.01
AGAG | 1.24
UUAU | 1.03
AGUU | 1.19
CACA | 1.05
AUUU | 1.02
CCGC | 1.06
ACCG | 0.916
UCAC | 0.947
CAGC | 0.947
AAAA | 1.19
UGUC | 0.879
GGGU | 1.17
UGAU | 0.863
CGGG | 1.19

Series 2 — technique: protein binding microarray; molecule type: double-stranded DNA, one strand shown; matrix: in vitro; concentration: not given; reference: not given; direction: higher = stronger binding
Target: Histone acetyltransferase KAT6A, winged helix 2, GST fusion (KAT6A, Homo sapiens, UniProt Q92794, residues 85-181)
Notes: 8-mer, flanks averaged, mean of 2 arrays, mostly near background
Residues (chain): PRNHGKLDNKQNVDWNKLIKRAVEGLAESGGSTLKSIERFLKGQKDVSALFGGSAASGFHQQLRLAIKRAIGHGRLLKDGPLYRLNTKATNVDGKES
Strand | E-score
AGAATAAG | 0.0673
AGGTGAAT | 0.102
CTCTCGGA | 0.107
AATGACCG | 0.0636
TACATGCA | -0.0703
CAAGCCGA | 0.244
AGCCTTGC | 0.122
ACTAACTG | -0.214
TGCAGCCA | 0.115
ATTTGAAC | -0.0304
CTATAATC | -0.114
CGCAGACC | 0.0173
CAGTTGCA | 0.0108
CGGTTGTC | 0.0354

Series 3 — technique: RNA Bind-n-Seq; molecule type: RNA; matrix: in vitro; concentration: 365 nM; reference: no-protein control; direction: higher = stronger binding
Target: RNA binding protein fox-1 homolog 2, RRM domain, GST-SBP tag (RBFOX2, Homo sapiens, UniProt O43251-10, residues 100-194)
Notes: natural RNA segment, single round, ends assumed
All sequences stand within: GGGAGUUCUACAGUCCGACGAUC … UGGAAUUCUCGGGUGCCAA
Construct (chain): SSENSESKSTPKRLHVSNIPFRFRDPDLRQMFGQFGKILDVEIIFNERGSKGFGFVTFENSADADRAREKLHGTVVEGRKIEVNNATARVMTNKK
Strand | RBNS enrichment (R)
UUUUUGCAUUUUACUCACUUGAUAAGUCUGCUCCACUGGUUUCAUCAGAUAGACUUGCUGCUACUGGCUUUUCCAUUGUAGAUUGGGUUAUUUUACACGCAGUUCGCCAA | 1.52
UAAGAGUCAGUUCUUCAAUUCUGGUCCCAUUAUCUCCAAGUGCCUUUUUUACAGUGACAACAGACAGUCCCUCGGUUUCAUGUCUUUUCGUAACCCUUUCAAUUGAACUG | 0.363
AUGUAAUGGAUUAUGUGGAAUUGUAGUGCCAUCGGUUUUUACUUAGAGCCCUUGACGUGCUUGGACCAAUAUUUCCUUCCUUCUUAUGAACCAGGUUUUUCCUUCUGAUU | 0.383
AGUAAUUUUGCCAUCCUAGGCUUAAAUGCAAUAUUCCUGGUAUUAUUUACAAUGCAGAAUUUUUUGAGUAAUUCUAGCUUUCAAAAAUUAGUGAAGUUCUUUUACUGUAA | 0.485
AAUAGCUCUUGUAAAAGGUCACAAUAACUCUAUGCACCUGAUACUGCAGUGGUUCCUAGGCCAUUCUUCAUCUGCUCUGGACAUCUCAGUCAUACCCAAUGCUCAGUGGA | 0.487
CCAUUUUUAUUUCAUUUUUAUUUUUGUUAAUGCAAACAGGACUUAAAUGAACUUUGAUCUCUGUUUUAAAGAUUAUUAAAAAACAUUGUGUAUCUAUACAUAUGGCUCUU | 1.12
GCAUUUUCUUUAUUAUUUUCAUUUCCCUUAUAUUAUCCAUCAUUCCUUAAGGACAAUUAUUCUUAAUAAUGCUUAUAGAAAAUGUUCUCUAAUUAAACAUGCCAAAAGGA | 0.578
UCAGAAGUCUGUAAUGAAUGUAAUUAUGUUUAGGCCAGUAAAUGAUGUAGAUUCGUCCUUUAUUGGUAGUCGCAGUUGAUAUUUCAAGAGAGUGAGAUGCCAUGCUGACA | 0.293

Series 4 — target: CCNB3, cyclin fold, Cln2 fusion (human); technique: yeast growth competition, sequencing; matrix: yeast; notes: weak parent motif; reference: not given; direction: higher = stronger binding
Starting sequence: RBL1 docking peptide (human); GSAKRRLFGEDPP
Change | normalised enrichment score
F8P | 0.368
E10S | 0.796
R6N | 1.08
R5T | -0.0844
G9N | 1.43
D11N | 0.784
L7E | -0.149
G9E | 0.769
R6S | 0.517
L7R | -0.0335
S2N | 0.435
A3D | 0.0625
G1A | 1.03
K4C | 0.166
R5V | 0.346
P13K | 0.114
G9V | 1.39
D11P | 0.0717

Series 5 — technique: DHFR PCA, deep sequencing; matrix: yeast; with: (+)-ABA 4.8 µM; reference: wild-type fitted maximum; direction: higher = stronger binding
Target: ABI1, truncated, D143A, DHFR fusion (Arabidopsis thaliana)
Notes: methotrexate growth selection, single substitutions
Starting sequence: PYL1, truncated, DHFR fusion (Arabidopsis thaliana); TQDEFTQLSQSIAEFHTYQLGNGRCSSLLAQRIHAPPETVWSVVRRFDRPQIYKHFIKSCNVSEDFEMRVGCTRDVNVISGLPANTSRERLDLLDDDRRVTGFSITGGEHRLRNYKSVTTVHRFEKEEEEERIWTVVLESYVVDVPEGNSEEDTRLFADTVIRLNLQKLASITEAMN
Change | relative binding score
P83C | 8.73%
L112P | 12.7%
P36Q | 45.4%
E174Q | 61.6%
R32Y | 63%
S26D | 3.23%
K116F | -4.46%
D65N | 72.1%
V137S | -4.24%
S171T | 80.4%
R98A | 50.6%
R24M | 60.8%
K116N | 12.5%
K58Q | 64.5%
T119P | 1.37%

Series 6 — technique: EMSA with sequencing; molecule type: double-stranded DNA, one strand shown; matrix: in vitro; concentration: 10 and 20 nM; reference: negative control set to 0; direction: higher = stronger binding
Target: Hepatocyte nuclear factor 3-alpha (Foxa1, Mus musculus, UniProt P35582, residues 1-468, full length assumed)
Notes: whole designed probe, mean of two concentrations, ends assumed
All sequences stand within: GTGAGCGGTGCCCATTGATGGGGAAC … TTTCACTGGGATCGTGGGGAC
Target sequence (chain): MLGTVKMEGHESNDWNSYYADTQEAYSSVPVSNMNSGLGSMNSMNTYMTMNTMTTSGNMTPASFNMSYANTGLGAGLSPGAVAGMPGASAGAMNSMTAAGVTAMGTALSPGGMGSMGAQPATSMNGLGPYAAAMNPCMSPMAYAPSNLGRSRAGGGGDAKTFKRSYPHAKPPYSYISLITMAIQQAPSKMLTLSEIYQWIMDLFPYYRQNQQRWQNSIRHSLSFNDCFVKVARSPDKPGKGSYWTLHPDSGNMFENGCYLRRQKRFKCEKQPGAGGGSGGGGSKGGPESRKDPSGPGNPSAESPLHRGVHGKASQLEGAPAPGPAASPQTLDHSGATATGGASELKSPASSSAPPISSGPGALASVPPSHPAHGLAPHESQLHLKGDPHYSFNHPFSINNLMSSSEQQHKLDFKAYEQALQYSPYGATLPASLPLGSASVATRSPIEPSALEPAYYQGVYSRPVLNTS
Strand | normalised bound fraction
CTTTATTAGTTACATGAGTTGGGCAAAACCTTTTGGAATAGTACCAGTGTCACCAAGACAACAGGATGGTTATAGAAAGGCAGAAAAACAATGTAAACAAACATTTTATAAGCATAAATAATAATAGTTATTCTTCTATATACATTCAGTGTCTCTAAGCAGATCCAAAGATTTGCCAAGTTTTAATGAGATG | 0.473 ratio
TTTGAGATTAATATGACAGTGTTGTTTCAACTTCATTGGTCAGTACCTTCTTATTCCTTTTCTATATGGATAGATTTGCCTTATATTTTAGATGTTTACTTTGAGTTTGTATTTTTCGTATTCAAAACAGTTAAATCAGAATGTTAAACTTCTAACAACAGATTCTCTTTGAACATTTTTACAAAAGTTTAAA | 0.288 ratio
TCTAGAGACATTTCTTGGACAAAAGAAAAAAAACAAAGCTGAATTGTGAGAAGATGTCAGCAAAAAAGCACATCATTATTTAAATCAGGGCTAAGTAATTTAGGAGCTGGATGTGTCTGAGATTGCTTACAACACGTAGGATCAATTCATATATTTTAAGAAGTGCACGTATGGATTGAGCTGATTTGATTAA | -0.0103 ratio
CTTTACCCTCCATGTTACAGGATTTTTTAAAAGAGTATCATTATATACAAAAAGTTAGAGTTCGCTGGTTAGAATGAGAACCATTCAAGGCAAAGTAATCTTAAACTCTCCTGTCCCAAAGGGTGTTAACTAGGTCCGCTTTCATGTGCATCAGACGATACACCTATAGCAAGCACACACAGCAGTGCTAGGC | -0.0462 ratio
TAATTTGGCTTTCCTTGTAAAACTCTTTTTAATTTTTAATTTTAAATGCCATGTAATACACTTGTTCTCTCTTTGAACTGAGATTTATCAATGTAAACAAGAAGAACAATTCAATTCATTAAATTAAAGAGGATATTTGTTCCAGGCTGAAAAATTAAGTGGTTTACTACACATAAATATAAAATTTCCTTCA | 0.393 ratio

Repeated from above (series 3):
Strand | RBNS enrichment (R)
GCAUUUUCUUUAUUAUUUUCAUUUCCCUUAUAUUAUCCAUCAUUCCUUAAGGACAAUUAUUCUUAAUAAUGCUUAUAGAAAAUGUUCUCUAAUUAAACAUGCCAAAAGGA | 0.578
UUUUUGCAUUUUACUCACUUGAUAAGUCUGCUCCACUGGUUUCAUCAGAUAGACUUGCUGCUACUGGCUUUUCCAUUGUAGAUUGGGUUAUUUUACACGCAGUUCGCCAA | 1.52
UAAGAGUCAGUUCUUCAAUUCUGGUCCCAUUAUCUCCAAGUGCCUUUUUUACAGUGACAACAGACAGUCCCUCGGUUUCAUGUCUUUUCGUAACCCUUUCAAUUGAACUG | 0.363
UCAGAAGUCUGUAAUGAAUGUAAUUAUGUUUAGGCCAGUAAAUGAUGUAGAUUCGUCCUUUAUUGGUAGUCGCAGUUGAUAUUUCAAGAGAGUGAGAUGCCAUGCUGACA | 0.293
CCAUUUUUAUUUCAUUUUUAUUUUUGUUAAUGCAAACAGGACUUAAAUGAACUUUGAUCUCUGUUUUAAAGAUUAUUAAAAAACAUUGUGUAUCUAUACAUAUGGCUCUU | 1.12
AUGUAAUGGAUUAUGUGGAAUUGUAGUGCCAUCGGUUUUUACUUAGAGCCCUUGACGUGCUUGGACCAAUAUUUCCUUCCUUCUUAUGAACCAGGUUUUUCCUUCUGAUU | 0.383
AGUAAUUUUGCCAUCCUAGGCUUAAAUGCAAUAUUCCUGGUAUUAUUUACAAUGCAGAAUUUUUUGAGUAAUUCUAGCUUUCAAAAAUUAGUGAAGUUCUUUUACUGUAA | 0.485
AAUAGCUCUUGUAAAAGGUCACAAUAACUCUAUGCACCUGAUACUGCAGUGGUUCCUAGGCCAUUCUUCAUCUGCUCUGGACAUCUCAGUCAUACCCAAUGCUCAGUGGA | 0.487
